Measured values gathered from unrelated publications.
Numbered parts are unrelated; each lists some results of a single study.

Sample 1
Target: Sal-like protein 4, full length isoform A (SALL4, Homo sapiens, UniProt Q9UJQ4, residues 1-1053)
Chain of UniProt Q9UJQ4 (whole entry, looked up): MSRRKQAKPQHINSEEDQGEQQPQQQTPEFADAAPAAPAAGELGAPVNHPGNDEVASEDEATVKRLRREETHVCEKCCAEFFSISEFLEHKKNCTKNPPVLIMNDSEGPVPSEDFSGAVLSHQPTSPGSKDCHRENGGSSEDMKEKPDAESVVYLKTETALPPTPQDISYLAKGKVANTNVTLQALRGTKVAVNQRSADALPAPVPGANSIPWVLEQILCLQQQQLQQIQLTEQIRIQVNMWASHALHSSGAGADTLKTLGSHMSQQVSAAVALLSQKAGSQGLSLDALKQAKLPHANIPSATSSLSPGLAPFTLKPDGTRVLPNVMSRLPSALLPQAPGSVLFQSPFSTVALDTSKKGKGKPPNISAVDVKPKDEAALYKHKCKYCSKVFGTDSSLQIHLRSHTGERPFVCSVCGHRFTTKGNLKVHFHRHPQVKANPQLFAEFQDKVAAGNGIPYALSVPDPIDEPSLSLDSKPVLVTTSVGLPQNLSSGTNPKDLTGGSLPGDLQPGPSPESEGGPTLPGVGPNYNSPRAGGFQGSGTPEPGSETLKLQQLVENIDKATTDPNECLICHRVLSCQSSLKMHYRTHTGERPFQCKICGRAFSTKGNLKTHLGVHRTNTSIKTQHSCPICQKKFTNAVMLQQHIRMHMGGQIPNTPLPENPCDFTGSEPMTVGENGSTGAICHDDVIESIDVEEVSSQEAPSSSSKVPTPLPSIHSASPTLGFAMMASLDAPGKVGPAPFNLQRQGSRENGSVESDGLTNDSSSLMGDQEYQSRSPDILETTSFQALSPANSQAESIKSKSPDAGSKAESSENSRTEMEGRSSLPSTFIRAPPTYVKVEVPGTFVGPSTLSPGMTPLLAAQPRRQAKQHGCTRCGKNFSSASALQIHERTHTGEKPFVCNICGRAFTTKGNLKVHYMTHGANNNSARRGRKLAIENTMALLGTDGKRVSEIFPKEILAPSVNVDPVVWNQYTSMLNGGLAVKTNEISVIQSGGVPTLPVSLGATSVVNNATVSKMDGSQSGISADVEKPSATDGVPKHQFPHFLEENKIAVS
Method: universal PBM
Molecule type: double-stranded DNA, one strand shown
Medium: in vitro
Tested at: 600 nM
Setting: 8-mer, flanks averaged, mean of replicates
Reading: higher = stronger binding
Oligonucleotide | E-score
CACGGAGC | -0.177
CTGTTAAC | 0.127
CAGAACTG | -0.0488
TATGAGCA | 0.17
GCTACTAA | 0.0488
ATAGCGAG | 0.0211
CATAACGC | 0.196

Sample 2
Target: RNA binding protein fox-1 homolog 2, RRM domain, GST-SBP tag (RBFOX2, Homo sapiens, UniProt O43251-10, residues 100-194)
Method: RNA Bind-n-Seq
Molecule type: RNA
Medium: in vitro
Tested at: 365 nM
Setting: natural RNA segment, single round, ends assumed
Relative to: no-protein control
Reading: higher = stronger binding
Construct (chain): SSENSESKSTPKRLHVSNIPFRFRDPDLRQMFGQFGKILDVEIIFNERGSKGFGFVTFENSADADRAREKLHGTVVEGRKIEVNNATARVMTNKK
Oligonucleotide | RBNS enrichment (R)
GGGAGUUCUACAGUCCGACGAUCUUAGUAGAGCCCUGCUUGGGCCUCACUUUGUGGACACCAGGCUGGUGCACCUCCCUUUUCAGGCACUCUGAGUGUCCUUCCCACCCAUGACAAGGCAACCACAGAAGUCAUGGAAUUCUCGGGUGCCAA | 0.357
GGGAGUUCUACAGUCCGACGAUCGCUGACUUUGCAGUUUGCUUGUGCUAUGACAUUUAUUGUAGGUGCUAUUUAGGGUAGGCUUAAAGUGCUGGGUGGUGAUUUGAGUUCAAACAAUAAAAAAUUGUAUUUUUUGGAAUUCUCGGGUGCCAA | 0.777
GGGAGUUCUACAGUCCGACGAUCCUGCUGCUUCUGCAUUGCUCCGCGCUCUUGUGAAAUACUGGUUCUGUUUUCUUUAUUCCUUUUGCACUCUCGGUUCCCACCUUUGUGUUGGAGUUUACCAUGUUACCCUGUGGAAUUCUCGGGUGCCAA | 0.953
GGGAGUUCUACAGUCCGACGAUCAUAAUCUGAACAGCAAACAGUGCCAUUAAGUGCACAGAUGUUAAUGCAACUAAUGGUUGUGCCAGCUAUUCCCUAGAGGUCCUAGACACACAGACUGCCUUAGCCCCCACUGGAAUUCUCGGGUGCCAA | 0.325
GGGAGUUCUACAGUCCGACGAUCUUCUAAUGACAAUGAAUGGAAUUAAUCACGCUACAGGUAUAGUAUUACAACUCAUGUUUACUUUUUAAAAUGAUUUAGACUGAUUUUCAGCUUUUAUUUCAUUACAAUUAUGGAAUUCUCGGGUGCCAA | 0.945
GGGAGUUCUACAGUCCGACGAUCUGGCUUCUAGUCUGGUGUUCUGAGUACUUGAUUUCAGGUCAAUAACGGUCCCCCCUCACUCCACACUGGCACGUUUGUGAGAAGAAAUGACAUUUUGCUAGGAAGUGACCUGGAAUUCUCGGGUGCCAA | 0.476

Sample 3
Target: Cyclic AMP-responsive element-binding protein 1, full length (CREB1, Homo sapiens, UniProt P16220, residues 1-327)
Chain of UniProt P16220 (whole entry, looked up): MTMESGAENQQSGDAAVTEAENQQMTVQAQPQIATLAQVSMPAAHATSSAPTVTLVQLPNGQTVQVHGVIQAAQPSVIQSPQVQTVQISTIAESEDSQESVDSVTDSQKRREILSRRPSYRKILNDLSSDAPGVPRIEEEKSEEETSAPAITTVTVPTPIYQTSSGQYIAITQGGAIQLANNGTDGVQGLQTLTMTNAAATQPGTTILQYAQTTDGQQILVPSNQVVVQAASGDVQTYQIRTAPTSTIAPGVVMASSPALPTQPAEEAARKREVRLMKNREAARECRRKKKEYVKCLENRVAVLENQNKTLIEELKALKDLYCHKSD
Method: protein-binding microarray
Molecule type: hairpin DNA
Medium: in vitro
Tested at: not given
Setting: whole hairpin DNA, median over replicate spots
Relative to: not given
Reading: higher = stronger binding
Constant ends, left off below: GAGGCCG … CGGCCTCACACTC
Oligonucleotide | median fluorescence [a.u.]
AGGACGTCGTGCCTCCTGGCACGACGTCCT (5mC at 15 29 35 36) | 3110
GCTGCGGTCAGCCTCCTGGCTGACCGCAGC (5mC at 12) | 2670
CATGACGTCAGCCTCCTGGCTGACGTCATG (5mC at 8) | 20000
GATGGCGTCAGCCTCCTGGCTGACGCCATC | 3940
GCTAACGTCAGCCTCCTGGCTGACGTTAGC | 3940

Mixed results
Substance | target | assay | test system | conditions | how to read | measurement | value
PhoQ, residues 284 288 289 292 302 303 AEGLLW | PhoP, residues 12 14 15 18 19 NMSFL (Escherichia coli, UniProt P23836) | Sort-seq, measured: YFP reporter | E. coli | PhoQ-PhoP variant library, added: 10 µM Mg2+ | relative to: high Mg2+ state, higher = stronger signaling | fold induction | 11.4
